# Experimental data pooled from the literature.
# Parts stem from different laboratories: compare values within a part only.

# Series 1
# Target: RNA binding protein fox-1 homolog 2, RRM domain, GST-SBP tag (RBFOX2, Homo sapiens, UniProt O43251-10, residues 100-194)
# Method: RNA Bind-n-Seq
# Molecule type: RNA
# Matrix: in vitro
# Tested at: 365 nM
# Notes: natural RNA segment, single round, ends assumed
# Relative to: no-protein control
# Direction: higher = stronger binding
# Shared flanks, not repeated: GGGAGUUCUACAGUCCGACGAUC … UGGAAUUCUCGGGUGCCAA
# Target sequence (chain): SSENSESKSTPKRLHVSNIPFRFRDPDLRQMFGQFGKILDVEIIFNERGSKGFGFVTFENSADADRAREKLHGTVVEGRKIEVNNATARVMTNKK
Oligonucleotide,RBNS enrichment (R)
CUCUCAUAUUUAAAAACGUAAUCUCUUCUCUUAGAAGUAUAGAUCAUUUUGAAACUUAAUGUACUACUUACUGGUACUCUCCCUAUUAAUAUUUGAAGGACCUCAAUGGA,0.384
GCCCGGAGAGGCCAGAGGGUUGGAGCUGCAGGGACCCGUUUGGACCCACAGCCUCUGUUCUAGAGAUGCUUGUAUAGGCUGUUAAUUGUGAUGAAUAAACGUUCAACCCU,1.1
UGUUUAUAAACUGAAAAGGUACCGGGUCUUACAGCAUUUUAUAUAUCACACCUUUACAGAAUAACAUGAUGGCAAUAUACAUACGUGAUAUUGUUAGGUGGAAUAACUUA,1.33
UCUACAAUGCUCUUCAUGGUCUCAAUGUCUGUGCCAUAAGGGUAGAAAGCUAACAGUCAGUUUUUGCAACCUGUCUUCUGGAAGCAAAGUGAAAAGAAAUGACCAGGGCU,0.321
AGAGUCGGCAAGCAGGUGCCAGAUUUUCUAUCCCAUCAGCCAGUGCUUCACCAGGUGCAGGCUGCUAUGGGCUUGUGGAAACCACAGGUACAGGUGGGAUUUCAUGGGUC,0.325
CAAGAUGCCCUGUGCAGCUGCCCGAGGGUCUCCGCCCACCCCGGCCGGACUUUGAUCCCCCCGAAGUCUUCACAGGCACUGCAUCGGGUUGUCUGGCGCCCUUUUCCUCC,0.405
CUAAUCCUAGUCCUUUUCCUGAGGUAGAUUUUAAACAGUAUUUUUAAAGUCCAAGACAUAGGUUUUUCUAGUUUAUUCCCUGAAGAUCUGUUGCCACAGUUGGGAGAUUU,0.33
GUUUUUAGUUGCUAUCUGUAGCGUGACAACGGGCAGCUAUAUUUACAGGCUUUCAUUCUAUCUUAUUAACAUAGAGUCUUAUGGAACAAUUUGCCAUGAGUAUAGUUGAA,0.506

# Series 2
# Target: Phosphate system positive regulatory protein PHO4, full length, GST-tagged (PHO4, Saccharomyces cerevisiae, UniProt P07270, residues 1-312)
# Method: competition protein-binding microarray
# Molecule type: double-stranded DNA, one strand shown
# Matrix: in vitro
# Tested at: 2 µM
# Notes: whole 60-bp probe, lowest competitor level
# Together with: Cbf1 competitor, 0.05 µM
# Direction: higher = stronger binding
# Shared flanks, not repeated: … GTCTTGATTCGCTTGACGCTGCTG
# Target sequence (chain): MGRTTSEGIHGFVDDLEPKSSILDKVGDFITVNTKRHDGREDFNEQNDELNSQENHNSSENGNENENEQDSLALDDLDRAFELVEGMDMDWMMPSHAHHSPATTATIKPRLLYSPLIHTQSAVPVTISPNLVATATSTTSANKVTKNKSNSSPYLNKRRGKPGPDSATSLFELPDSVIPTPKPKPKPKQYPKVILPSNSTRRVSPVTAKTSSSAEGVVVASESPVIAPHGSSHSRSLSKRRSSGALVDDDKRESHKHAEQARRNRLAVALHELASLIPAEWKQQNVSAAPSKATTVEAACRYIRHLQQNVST
Oligonucleotide,fluorescence intensity [a.u.]
CGTCCTAGCGATTGACATGTGGGTGCCATGAGGAAG,12200
TGCGCAACAACTTGTCACCTCACTTTATGTCTAGAA,2960
CATACCCAACCTTGTTACGTGGGTGAAGATATTTGT,6250
AGTAAAAGTCGTCGGCACGGGCCCCAAACGATAGAG,11600
CTTGGCACACTCTGTTGCGTGGTGAAAATAGAACCA,7230
CTTCTGTAAATTTGTCTTGTGGGTGGACGCGCCCCG,4620
CGTCCTAGCGATTAACACGTGTTTTCCATGAGGAAG,18300
TCGTCTGGGTTGGGACCGATGATAATAACGTAGTTA,2990
TTGAACCTTGGTCTTCACGTGGTGAAGTATTGGTAC,11800
GGTCCGGAACTGGTGTGCATGACAGCCGCGGAATGC,5300
CGCTTCAGGACAGTACACGTGATCCAGCATAAGATG,14100
CCATGGACAATTTCACACGTGAAAATTGGTTACCAT,10800
GCCATTCTCCATTCACACGTCAATCAGTCGTATTGG,4740
AATCCTGGGGTACCGGTCGTGCCGACGCTCGTATTC,6410
GGAGCAAATAGTTGAAAGGTGTGCCATAAGAAGGTG,7490
ATCAAATGAGACTAGCACATGGGGCTCTCGTTAGCC,12300
CTAACGAAGGTTTGTCACTCAACTTACAAGCCAAGT,2850
AGATTCGAATTACCATCCGTGACGGACATCTTATTT,3470
CTTTCCCGATCTTGTCACACGACTTTAGCACATTTG,6260

# Series 3
# Target: Sal-like protein 4, full length isoform B (SALL4, Homo sapiens, UniProt Q9UJQ4-2, residues 1-616)
# Method: universal PBM
# Molecule type: double-stranded DNA, one strand shown
# Matrix: in vitro
# Tested at: not given
# Notes: 8-mer, flanks averaged, mean of replicates
# Direction: higher = stronger binding
Oligonucleotide,E-score
CAACATGA,0.146
GCATCCGA,-0.264
AACCACCC,-0.252
CACGGAAG,-0.194
CGGGAGCA,-0.192
CGGCACGC,-0.222
TCACGAGA,-0.0871
ATTCACTG,0.117
CGCACTAG,-0.188
ATGTGAGC,-0.118
GAGCTCCC,-0.318
AGGGAAAG,0.017
ATCTAGCC,-0.129
CCACTCTC,-0.136
GAAGCACA,0.174
GGTAATAA,0.324
ACGGGATC,-0.0449
ATCCCAAG,-0.115
ATCCAAGA,0.0222
AGACCTGA,-0.0374
ACGGTCTG,-0.211
AAGATCTG,-0.139
ACACTTGG,0.0787
CATTGCGA,0.115
ACTTAGGA,0.033

# Series 4
# Target: Histone acetyltransferase KAT6A, winged helix 1, GST fusion (KAT6A, Homo sapiens, UniProt Q92794, residues 1-85)
# Method: protein binding microarray
# Molecule type: double-stranded DNA, one strand shown
# Matrix: in vitro
# Tested at: not given
# Notes: 8-mer, flanks averaged, mean of 2 arrays, mostly near background
# Relative to: not given
# Direction: higher = stronger binding
# Construct (chain): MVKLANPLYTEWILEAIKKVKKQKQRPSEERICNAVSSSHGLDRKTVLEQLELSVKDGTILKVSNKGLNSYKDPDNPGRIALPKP
Oligonucleotide,E-score
CACTGTAC,-0.077
AGTCGAAA,-0.242
CAAGGCGC,0.329
CGGAATCC,0.138
ACAGCTTG,-0.133
AGATTAAT,-0.0588
ATCGTCGA,-0.0339
GCTTGAAC,-0.00656
GTTCTTGA,-0.114
GATCGTCC,-0.117
GTCATTGA,-0.227
GTTGGCTA,0.0419
ATCAAGGG,-0.0659
CGCCAAAG,0.0697
CGTTGGAA,-0.0844
ATTTACTG,-0.211
AACCCTGG,-0.137
CCATATAA,-0.0836
ATCCTGCC,-0.0163
ACCAAATG,-0.227
CAAAGGGA,-0.158
TCTTCGCA,-0.105
AGGAGAAC,-0.119
GCCTTCGA,-0.0491

# A few entries again (series 4):
Oligonucleotide,E-score
CACTGTAC,-0.077
AGTCGAAA,-0.242
CAAGGCGC,0.329
CGGAATCC,0.138
ACAGCTTG,-0.133
AGATTAAT,-0.0588
ATCGTCGA,-0.0339
GCTTGAAC,-0.00656
GTTCTTGA,-0.114
GATCGTCC,-0.117
GTCATTGA,-0.227
